# Assay results collected from several papers.
# A part holds a random share of what one study measured.

# Series 1
# Substance: PhoQ, residues 284 288 289 292 302 303 SCEHLI
# Method: Sort-seq
# Item: YFP reporter
# Medium: E. coli
# Notes: PhoQ-PhoP variant library
# With: 10 µM Mg2+
# Relative to: high Mg2+ state
# Direction: higher = stronger signaling
target,fold induction
"PhoP, residues 12 14 15 18 19 LHTVL (Escherichia coli, UniProt P23836)",12.9
"PhoP, residues 12 14 15 18 19 NQCAL (Escherichia coli, UniProt P23836)",13.8
"PhoP, residues 12 14 15 18 19 TQAML (Escherichia coli, UniProt P23836)",16.6

# Series 2
# Target: Histone acetyltransferase KAT6A, both winged helices, GST fusion (KAT6A, Homo sapiens, UniProt Q92794, residues 1-181)
# Method: protein binding microarray
# Form: double-stranded DNA, one strand shown
# Medium: in vitro
# Concentration: not given
# Notes: 8-mer, flanks averaged, mean of 2 arrays, mostly near background
# Relative to: not given
# Direction: higher = stronger binding
# Residues (chain): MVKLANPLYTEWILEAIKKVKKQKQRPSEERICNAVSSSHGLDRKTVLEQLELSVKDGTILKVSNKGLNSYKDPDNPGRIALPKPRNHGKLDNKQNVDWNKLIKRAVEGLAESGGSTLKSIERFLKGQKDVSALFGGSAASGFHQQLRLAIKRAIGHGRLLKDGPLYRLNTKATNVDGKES
Sequence,E-score
CATCTTAC,-0.111
CTAGGGCA,-0.165
ATTATTGA,-0.166
CGAGACCA,-0.15
ACCACATG,-0.0586
TAGTGTAA,-0.0274
CCTGGGCA,-0.204
ACGCGTGC,0.291
GATTCACA,-0.114
AATGGAGA,-0.0532
ACTCCTTG,-0.0131

# Series 3
# Target: RNA binding protein fox-1 homolog 2, RRM domain, GST-SBP tag (RBFOX2, Homo sapiens, UniProt O43251-10, residues 100-194)
# Method: RNA Bind-n-Seq
# Form: RNA
# Medium: in vitro
# Concentration: 365 nM
# Notes: natural RNA segment, single round, ends assumed
# Relative to: no-protein control
# Direction: higher = stronger binding
# All sequences stand within: GGGAGUUCUACAGUCCGACGAUC … UGGAAUUCUCGGGUGCCAA
# Target sequence (chain): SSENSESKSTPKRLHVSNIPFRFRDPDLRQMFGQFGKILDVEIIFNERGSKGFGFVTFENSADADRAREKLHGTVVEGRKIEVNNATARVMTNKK
Sequence,RBNS enrichment (R)
GGCACAUAUUGAGGCGAUCAUAAGUCUUAACUUUUCAAAAUUUUAAAUAAAAGACUUUGCACAUUGACCCCUUUCCCUGAAUUCUGUUUGUUGGGAAAGCUCCUGAAAUG,0.417
AGAACUGCACCGCUGUCUUGUGAGCAUGGCGUGAACAGGCUGUUUUGCUCCAGCCACUUUUCUUGUACAACUACGGGGAUGGACUAGAUGUCCUCUGGUCUUUUCCAUCU,2.66
UGAGAACCCACCUGACCCAGGCUUGCCCCAAGCAGAGGCUAGAGAAGAGGCUCCUCUUCUCAGUGUUUCCCAAAGGGGCGGCUCUUGUGGUUUCAAAAUCUCUGGCACCA,0.164
GUGUCUGUUCUUGCCCUUAAUAUUAUAAGUGGCAUAAAUGUCACACCAUUGCAAAGAACGGGAGAAAUAGUCUAAAAAGGUGGGGCUUUGGCAUUCCUACCCUACAUCCU,0.401
CUCCUUGGUUAUCAUCCACUGCAGCUGCUAGUUAGAAAGGUUUGGAGGGAUGACUUUUAGUAAAUCAUGGGGAUUUUAUUGAUUUAUUUUCACUUUUGGGAUUUUGUGGG,1.6
UUAUUAAUAUUAUUAUGACUUUUUGUAAGAGACUGAGGCAAGGCCACGCUUCGCUGCUACCACCCUGGGCUGGACUGGAGGGUGGGUGCGCCAACUCCCACGCAUUCGUG,0.404
CGGUCACGUGGGCCUGGUCUUUUGUGUGUGAGGCCCUUGACCGUGUGGCCUCUGCCUGGCUGUUUGGGGUCCUGCACGGCUUUCCCACCACCUGUAGCUCUUGUUGACCU,0.892
AAUGAUAUAAACUACUUUUAACUAAGAUGCCUAACAGGCUUUUAACACAGGUGUCCAUCUCCACUCUGUCCCCGGUCUCUGUCCCAGCUCAGGCUGCGUUCUCUAACUCA,0.372

# Series 4
# Target: Prothrombin, mature alpha-thrombin (F2, Homo sapiens, UniProt P00734)
# Method: aptamer microarray, sandwich
# Form: DNA with 2'F-ANA
# Medium: in vitro
# Concentration: 200 nM
# Notes: whole 15-mer aptamer, many near background
# With: Cy3 exosite-II aptamer, 400 nM
# Direction: higher = stronger binding
# Sequence: GGTTGGTGTGGTTGG
Modification,mean fluorescence intensity [a.u.]
2'F-ANA at 1 3 5 7 8 11 12 14 15,91.4
2'F-ANA at 3 5 6 9 11,105
2'F-ANA at 4 5 6 12 13 15,87.6
2'F-ANA at 2 3 6 9 10 11 12 14 15,261
2'F-ANA at 4 8 9 11 13,196
2'F-ANA at 1 3 4 7 8 9 10 12 13 15,165
2'F-ANA at 1 3 6 9 11 12 13,333
2'F-ANA at 1 5 7 8 9 10 13 14,47.1
2'F-ANA at 4 5 10 11 13,49.3
2'F-ANA at 1 3 4 5 7 9 11 12 14,54.1
